Measured values from different studies.
Parts stem from different laboratories: compare values within a part only.
UniProt O95382, sequence (whole entry, looked up): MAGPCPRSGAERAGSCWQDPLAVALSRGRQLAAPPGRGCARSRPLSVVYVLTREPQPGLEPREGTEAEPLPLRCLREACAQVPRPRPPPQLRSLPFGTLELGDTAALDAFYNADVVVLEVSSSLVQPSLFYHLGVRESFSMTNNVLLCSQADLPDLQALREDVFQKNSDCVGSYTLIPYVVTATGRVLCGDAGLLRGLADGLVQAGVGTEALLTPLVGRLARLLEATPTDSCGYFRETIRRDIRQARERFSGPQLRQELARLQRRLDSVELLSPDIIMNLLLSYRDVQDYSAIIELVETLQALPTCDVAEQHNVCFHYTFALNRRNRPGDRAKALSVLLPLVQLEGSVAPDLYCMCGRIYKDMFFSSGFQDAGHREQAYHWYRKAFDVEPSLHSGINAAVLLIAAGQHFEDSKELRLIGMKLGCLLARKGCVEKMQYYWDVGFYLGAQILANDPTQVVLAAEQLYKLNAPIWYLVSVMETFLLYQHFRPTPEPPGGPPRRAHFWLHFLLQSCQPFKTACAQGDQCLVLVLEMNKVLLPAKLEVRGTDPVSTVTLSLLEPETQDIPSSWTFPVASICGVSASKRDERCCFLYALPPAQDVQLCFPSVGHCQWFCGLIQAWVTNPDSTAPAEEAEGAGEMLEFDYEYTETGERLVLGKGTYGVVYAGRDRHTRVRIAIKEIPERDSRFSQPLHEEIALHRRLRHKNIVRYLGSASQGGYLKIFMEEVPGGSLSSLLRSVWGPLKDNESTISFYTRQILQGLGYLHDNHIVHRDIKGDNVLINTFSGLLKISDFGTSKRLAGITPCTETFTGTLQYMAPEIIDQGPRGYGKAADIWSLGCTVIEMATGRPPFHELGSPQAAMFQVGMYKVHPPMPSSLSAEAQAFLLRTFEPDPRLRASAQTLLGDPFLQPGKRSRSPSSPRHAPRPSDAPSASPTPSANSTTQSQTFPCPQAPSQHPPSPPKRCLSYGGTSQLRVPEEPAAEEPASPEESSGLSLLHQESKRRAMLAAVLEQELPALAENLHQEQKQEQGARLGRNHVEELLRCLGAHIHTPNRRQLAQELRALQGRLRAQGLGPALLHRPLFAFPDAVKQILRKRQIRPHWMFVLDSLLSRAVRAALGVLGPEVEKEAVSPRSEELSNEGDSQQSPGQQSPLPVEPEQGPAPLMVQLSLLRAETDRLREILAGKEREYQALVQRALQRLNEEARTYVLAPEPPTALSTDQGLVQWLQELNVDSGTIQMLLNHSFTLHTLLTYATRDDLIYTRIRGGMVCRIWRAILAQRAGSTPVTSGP
UniProt Q8N752, sequence (whole entry, looked up): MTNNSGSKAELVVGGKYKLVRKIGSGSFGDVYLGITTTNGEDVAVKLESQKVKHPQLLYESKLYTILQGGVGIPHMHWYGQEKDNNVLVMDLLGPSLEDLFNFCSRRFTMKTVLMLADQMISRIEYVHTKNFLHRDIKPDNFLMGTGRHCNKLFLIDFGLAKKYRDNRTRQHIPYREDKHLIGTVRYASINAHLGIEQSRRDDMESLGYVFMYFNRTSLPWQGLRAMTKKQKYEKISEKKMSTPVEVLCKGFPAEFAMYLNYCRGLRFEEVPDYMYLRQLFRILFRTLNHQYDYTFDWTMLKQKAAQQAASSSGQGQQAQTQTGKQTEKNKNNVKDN
UniProt O00238, sequence (whole entry, looked up): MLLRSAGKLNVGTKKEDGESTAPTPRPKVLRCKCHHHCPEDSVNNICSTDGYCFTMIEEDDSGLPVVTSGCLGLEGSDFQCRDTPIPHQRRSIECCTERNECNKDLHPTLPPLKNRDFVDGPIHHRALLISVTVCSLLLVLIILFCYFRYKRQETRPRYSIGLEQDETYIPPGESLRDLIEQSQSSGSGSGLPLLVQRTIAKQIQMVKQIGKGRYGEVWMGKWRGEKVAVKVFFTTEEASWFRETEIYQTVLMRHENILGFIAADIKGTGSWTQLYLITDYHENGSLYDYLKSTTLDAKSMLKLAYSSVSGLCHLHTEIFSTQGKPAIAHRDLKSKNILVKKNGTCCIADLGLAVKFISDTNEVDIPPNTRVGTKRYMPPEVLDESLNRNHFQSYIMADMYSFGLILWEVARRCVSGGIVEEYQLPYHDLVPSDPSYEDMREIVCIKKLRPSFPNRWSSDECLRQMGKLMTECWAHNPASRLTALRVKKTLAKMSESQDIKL
UniProt O15530, sequence (whole entry, looked up): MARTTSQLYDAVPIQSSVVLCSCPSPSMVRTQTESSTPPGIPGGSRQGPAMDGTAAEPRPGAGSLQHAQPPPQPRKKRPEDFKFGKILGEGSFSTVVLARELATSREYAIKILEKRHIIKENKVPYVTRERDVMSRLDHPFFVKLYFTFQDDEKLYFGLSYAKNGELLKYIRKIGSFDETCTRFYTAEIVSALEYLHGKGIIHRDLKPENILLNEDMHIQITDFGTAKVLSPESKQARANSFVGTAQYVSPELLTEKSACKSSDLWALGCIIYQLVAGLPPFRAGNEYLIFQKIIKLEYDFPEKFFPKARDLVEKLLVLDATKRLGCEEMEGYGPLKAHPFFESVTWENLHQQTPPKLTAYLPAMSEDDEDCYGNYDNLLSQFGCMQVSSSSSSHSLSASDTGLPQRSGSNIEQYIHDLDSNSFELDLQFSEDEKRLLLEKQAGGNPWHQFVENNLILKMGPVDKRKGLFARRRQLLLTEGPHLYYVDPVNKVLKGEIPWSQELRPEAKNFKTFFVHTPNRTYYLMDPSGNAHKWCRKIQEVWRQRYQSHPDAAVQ
UniProt P51813, sequence (whole entry, looked up): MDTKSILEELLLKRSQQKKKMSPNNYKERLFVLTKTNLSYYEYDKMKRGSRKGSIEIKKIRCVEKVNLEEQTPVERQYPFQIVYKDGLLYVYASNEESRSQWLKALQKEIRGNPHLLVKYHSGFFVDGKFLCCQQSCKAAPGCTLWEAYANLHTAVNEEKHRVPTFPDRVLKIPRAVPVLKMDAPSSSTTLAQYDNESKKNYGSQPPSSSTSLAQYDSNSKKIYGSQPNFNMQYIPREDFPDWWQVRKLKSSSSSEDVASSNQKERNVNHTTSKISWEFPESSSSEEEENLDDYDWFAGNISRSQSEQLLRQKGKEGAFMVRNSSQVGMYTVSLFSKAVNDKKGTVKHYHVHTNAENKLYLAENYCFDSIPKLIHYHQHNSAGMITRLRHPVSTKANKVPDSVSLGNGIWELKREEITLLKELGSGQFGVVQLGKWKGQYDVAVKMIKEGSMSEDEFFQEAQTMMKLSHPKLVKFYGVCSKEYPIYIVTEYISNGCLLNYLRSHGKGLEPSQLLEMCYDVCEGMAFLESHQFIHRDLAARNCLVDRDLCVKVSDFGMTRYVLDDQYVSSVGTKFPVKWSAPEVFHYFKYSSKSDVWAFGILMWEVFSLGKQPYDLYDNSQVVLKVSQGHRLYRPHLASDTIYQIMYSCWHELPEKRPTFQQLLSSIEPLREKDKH
UniProt P16234, sequence (whole entry, looked up): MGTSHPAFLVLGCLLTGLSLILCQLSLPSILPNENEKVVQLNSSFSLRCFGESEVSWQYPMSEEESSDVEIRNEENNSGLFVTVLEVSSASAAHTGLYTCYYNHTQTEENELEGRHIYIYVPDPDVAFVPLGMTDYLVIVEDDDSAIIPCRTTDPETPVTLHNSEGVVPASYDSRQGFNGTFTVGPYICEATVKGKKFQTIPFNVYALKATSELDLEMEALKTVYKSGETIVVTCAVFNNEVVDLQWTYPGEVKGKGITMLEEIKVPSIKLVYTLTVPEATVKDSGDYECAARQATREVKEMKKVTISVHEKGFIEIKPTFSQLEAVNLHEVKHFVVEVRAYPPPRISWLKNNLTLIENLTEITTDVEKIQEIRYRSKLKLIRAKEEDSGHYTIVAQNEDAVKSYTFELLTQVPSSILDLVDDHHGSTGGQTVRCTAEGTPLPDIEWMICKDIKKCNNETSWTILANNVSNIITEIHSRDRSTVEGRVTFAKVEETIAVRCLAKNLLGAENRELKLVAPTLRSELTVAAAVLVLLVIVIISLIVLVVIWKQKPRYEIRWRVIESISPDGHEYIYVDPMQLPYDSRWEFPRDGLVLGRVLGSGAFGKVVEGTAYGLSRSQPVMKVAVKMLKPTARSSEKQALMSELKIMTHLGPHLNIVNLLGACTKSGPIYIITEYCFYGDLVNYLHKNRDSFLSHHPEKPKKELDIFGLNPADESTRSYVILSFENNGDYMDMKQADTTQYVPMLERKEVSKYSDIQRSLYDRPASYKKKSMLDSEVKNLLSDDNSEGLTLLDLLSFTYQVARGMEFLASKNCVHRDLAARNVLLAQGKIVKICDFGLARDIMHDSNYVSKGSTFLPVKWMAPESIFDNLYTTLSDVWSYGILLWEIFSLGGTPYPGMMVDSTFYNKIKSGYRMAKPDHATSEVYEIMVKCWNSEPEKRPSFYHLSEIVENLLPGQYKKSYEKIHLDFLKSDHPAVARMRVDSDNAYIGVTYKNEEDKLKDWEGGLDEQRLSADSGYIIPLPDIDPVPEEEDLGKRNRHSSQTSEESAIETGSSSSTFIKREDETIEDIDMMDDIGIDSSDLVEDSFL

Set 1
Target: Interferon regulatory factor 7, full length, phosphomimetic (IRF7, Homo sapiens, UniProt Q92985, residues 1-503, S101K/S471D/S472D/S475D/S476D/S477D/S483D/S484D/S487D)
UniProt Q92985, sequence (whole entry, unmodified, looked up): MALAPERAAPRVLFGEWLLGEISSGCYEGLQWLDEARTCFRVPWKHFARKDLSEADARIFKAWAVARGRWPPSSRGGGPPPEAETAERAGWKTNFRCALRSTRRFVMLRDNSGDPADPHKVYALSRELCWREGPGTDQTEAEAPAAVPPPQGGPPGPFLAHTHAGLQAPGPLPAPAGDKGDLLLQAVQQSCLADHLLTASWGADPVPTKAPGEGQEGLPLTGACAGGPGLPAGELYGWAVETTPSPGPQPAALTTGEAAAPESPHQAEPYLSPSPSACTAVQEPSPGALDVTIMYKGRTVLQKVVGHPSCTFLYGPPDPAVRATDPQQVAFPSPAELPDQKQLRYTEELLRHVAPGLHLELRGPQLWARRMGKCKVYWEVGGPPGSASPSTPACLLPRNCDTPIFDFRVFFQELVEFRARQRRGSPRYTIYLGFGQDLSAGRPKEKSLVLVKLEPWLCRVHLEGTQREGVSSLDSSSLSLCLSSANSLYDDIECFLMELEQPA
Technique: protein-binding microarray
Form: double-stranded DNA, one strand shown
Sample: in vitro
Concentration: 250 nM
Setting: 60-bp whole probe
Added: salmon DNA 0.4 mg/ml
Baseline: random background probes
Reading: higher = stronger binding
Measurement: log fluorescence
All sequences stand within: GCCTAGCAC … GTCTTGATTCGCTTGACGCTGCTG
Strand = TTAGGTCTCCTAATCCTTTAGTGCTAG; value = 0.233 z-score
Strand = GCCGGTATCCTTCTCCTGACGTGCTAG; value = 0.238 z-score
Strand = CTACTTCTCTTTTGGCTTTCGTGCTAG; value = 2.52 z-score
Strand = GACGATTTCGGGATTGGAGACGTGCTA; value = 0.29 z-score
Strand = GACGATATCGGGACTGGAGATGTGCTA; value = -0.371 z-score
Strand = TCAGCATACCATATCAGACTGTGCTAG; value = -0.418 z-score
Strand = GCTCCTCTTTTTTTGGTAATGTGCTAG; value = 1.21 z-score
Strand = AATTTTTTGTATTTTTAGTGGTGCTAG; value = 0.162 z-score

Set 2
SMILES: Nc1c(C(=O)NCc2ccc(C(=O)NCCCC3CCCCC3)cc2)cnn1-c1ccccc1
Read-out: cell-free assay
Technique: competition with immobilised ligand
Concentration: 0.1 µM
Measurement: remaining binding
target = STK32C (Homo sapiens, UniProt Q86UX6); value = 90%
target = BMPR1B (Homo sapiens, UniProt O00238); value = 100%
target = PDPK1 (Homo sapiens, UniProt O15530); value = 100%
target = TESK1 (Homo sapiens, UniProt Q15569); value = 100%
target = STK39 (Homo sapiens, UniProt Q9UEW8); value = 96%
target = RET (Homo sapiens, UniProt P07949, M918T); value = 100%
target = PDGFRA (Homo sapiens, UniProt P16234); value = 100%
target = TLK2 (Homo sapiens, UniProt Q86UE8); value = 100%
target = MAP3K6 (Homo sapiens, UniProt O95382); value = 100%
target = COQ8A (Homo sapiens, UniProt Q8NI60); value = 100%
target = EGFR (Homo sapiens, UniProt P00533, L861Q); value = 90%
target = FLT3 (Homo sapiens, UniProt P36888, D835V/ITD); value = 90%
target = PIK3CA (Homo sapiens, UniProt P42336, C420R); value = 100%
target = CSNK1A1L (Homo sapiens, UniProt Q8N752); value = 98%
target = CDK16 (Homo sapiens, UniProt Q00536); value = 97%
target = NEK6 (Homo sapiens, UniProt Q9HC98); value = 100%

Set 3
Structure (SMILES): Cn1cc(/C=C2\C(=O)Nc3ccc(S(N)(=O)=O)cc32)c2ccccc21
Read-out: enzyme activity
Action: inhibitor
Concentration: 0.5 µM
Baseline: control
Measurement: remaining activity
target = GRK6 (Homo sapiens, UniProt P43250); value = 47.2%
target = PRKCE (Homo sapiens, UniProt Q02156); value = 77.3%
target = PAK2 (Homo sapiens, UniProt Q13177); value = 79.2%
target = GRK2 (Homo sapiens, UniProt P25098); value = 100%
target = SGK1 (Homo sapiens, UniProt O00141); value = 71.8%
target = MYLK (Homo sapiens, UniProt Q15746); value = 95%
target = CSK (Homo sapiens, UniProt P41240); value = 89.3%
target = GSK3A (Homo sapiens, UniProt P49840); value = 100%
target = SRPK3 (Homo sapiens, UniProt Q9UPE1); value = 88.5%
target = RPS6KA1 (Homo sapiens, UniProt Q15418); value = 12.7%
target = BMX (Homo sapiens, UniProt P51813); value = 77%
target = CSF1R (Homo sapiens, UniProt P07333); value = 82.5%
target = FLT3 (Homo sapiens, UniProt P36888); value = 1.56%
target = EPHA7 (Homo sapiens, UniProt Q15375); value = 41.3%

Other studies, line by line
Technique: cross-linking MS
H2BC9: H2BC9 (Homo sapiens, UniProt Q93079)
Molecule = PPA1 (Homo sapiens, UniProt Q15181); partner = IQSEC1 (Homo sapiens, UniProt Q6DN90); sample = cell fractions; added = DSSO; measurement = cross-linked residues; value = K199 to S801
Molecule = HMGN1 (Homo sapiens, UniProt P05114); partner = H2BC9; setting = hits only; measurement = interaction screen; value = cross-linked
Molecule = H3-4 (Homo sapiens, UniProt Q16695); partner = H2BC9; setting = hits only; measurement = interaction screen; value = cross-linked
Molecule = BMS1 (Homo sapiens, UniProt Q14692); partner = UTP11 (Homo sapiens, UniProt Q9Y3A2); sample = cell fractions; added = DSSO; measurement = cross-linked residues; value = K1147 to K26

A few entries again (set 2):
target = TLK2 (Homo sapiens, UniProt Q86UE8); value = 100%
target = FLT3 (Homo sapiens, UniProt P36888, D835V/ITD); value = 90%
target = NEK6 (Homo sapiens, UniProt Q9HC98); value = 100%
